Measured values collected from several papers.
± gives the spread as reported.
CNR1: Cannabinoid receptor 1 (CNR1, Homo sapiens, UniProt P21554)
Sequence of UniProt P21554 (whole entry, looked up): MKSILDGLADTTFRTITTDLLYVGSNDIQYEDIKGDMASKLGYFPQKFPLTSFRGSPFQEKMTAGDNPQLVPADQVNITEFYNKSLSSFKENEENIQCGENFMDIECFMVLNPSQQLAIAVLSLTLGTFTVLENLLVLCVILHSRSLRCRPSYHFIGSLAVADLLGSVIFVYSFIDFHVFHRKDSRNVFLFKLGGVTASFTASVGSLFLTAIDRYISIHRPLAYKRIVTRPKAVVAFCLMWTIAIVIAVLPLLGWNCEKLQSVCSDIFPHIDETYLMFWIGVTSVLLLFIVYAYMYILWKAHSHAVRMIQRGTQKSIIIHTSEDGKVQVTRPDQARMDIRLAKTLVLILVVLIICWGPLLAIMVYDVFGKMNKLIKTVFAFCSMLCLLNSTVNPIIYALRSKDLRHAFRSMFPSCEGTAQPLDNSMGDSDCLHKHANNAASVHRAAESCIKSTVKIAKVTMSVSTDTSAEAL
SOST: Sclerostin (SOST, Homo sapiens, UniProt Q9BQB4)
Sequence of UniProt Q9BQB4 (whole entry, looked up): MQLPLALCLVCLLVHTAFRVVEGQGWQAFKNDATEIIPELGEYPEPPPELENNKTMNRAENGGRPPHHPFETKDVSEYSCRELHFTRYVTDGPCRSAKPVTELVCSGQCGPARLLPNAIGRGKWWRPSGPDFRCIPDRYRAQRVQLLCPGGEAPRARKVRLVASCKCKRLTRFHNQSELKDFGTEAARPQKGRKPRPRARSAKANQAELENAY
Kir3.1/Kir3.4: Kir3.1/Kir3.4 (Homo sapiens, UniProt P48544+P48549)
Sequence of UniProt P48549 (whole entry, looked up): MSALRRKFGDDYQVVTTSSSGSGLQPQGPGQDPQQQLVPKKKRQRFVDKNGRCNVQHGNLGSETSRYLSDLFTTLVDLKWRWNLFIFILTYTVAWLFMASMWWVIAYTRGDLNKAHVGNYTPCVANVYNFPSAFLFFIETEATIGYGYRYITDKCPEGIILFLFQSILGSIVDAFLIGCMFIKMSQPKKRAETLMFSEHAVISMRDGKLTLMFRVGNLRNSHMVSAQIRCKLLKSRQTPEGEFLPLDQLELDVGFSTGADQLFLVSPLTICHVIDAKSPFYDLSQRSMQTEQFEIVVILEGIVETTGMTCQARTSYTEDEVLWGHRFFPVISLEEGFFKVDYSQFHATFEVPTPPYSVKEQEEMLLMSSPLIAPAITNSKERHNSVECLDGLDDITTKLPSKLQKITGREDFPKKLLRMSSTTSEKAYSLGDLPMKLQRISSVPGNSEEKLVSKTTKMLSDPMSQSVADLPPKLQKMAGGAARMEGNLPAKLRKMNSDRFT
Sequence of UniProt P48544 (whole entry, looked up): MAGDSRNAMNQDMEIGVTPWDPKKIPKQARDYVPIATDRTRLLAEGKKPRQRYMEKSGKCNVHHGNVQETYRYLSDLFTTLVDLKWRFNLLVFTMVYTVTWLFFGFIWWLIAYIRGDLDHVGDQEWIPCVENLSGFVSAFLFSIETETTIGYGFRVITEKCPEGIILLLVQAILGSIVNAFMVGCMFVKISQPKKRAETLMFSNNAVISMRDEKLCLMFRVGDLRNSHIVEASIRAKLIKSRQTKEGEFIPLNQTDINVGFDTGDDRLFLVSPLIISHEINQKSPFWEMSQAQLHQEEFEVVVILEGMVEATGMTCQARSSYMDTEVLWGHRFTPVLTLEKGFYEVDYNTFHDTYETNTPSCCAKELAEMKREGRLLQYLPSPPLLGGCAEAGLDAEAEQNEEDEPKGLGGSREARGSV
Sequence of UniProt Q9UBY5 (whole entry, looked up): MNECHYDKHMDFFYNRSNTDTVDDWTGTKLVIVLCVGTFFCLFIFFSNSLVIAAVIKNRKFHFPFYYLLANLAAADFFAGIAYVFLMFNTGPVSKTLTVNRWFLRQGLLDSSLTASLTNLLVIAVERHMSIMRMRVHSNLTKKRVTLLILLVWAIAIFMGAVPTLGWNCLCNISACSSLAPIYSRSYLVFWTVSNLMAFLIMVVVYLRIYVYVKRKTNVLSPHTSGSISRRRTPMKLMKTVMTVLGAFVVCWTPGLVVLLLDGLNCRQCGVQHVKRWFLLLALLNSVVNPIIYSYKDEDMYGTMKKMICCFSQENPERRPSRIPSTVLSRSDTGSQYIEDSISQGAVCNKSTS
Sequence of UniProt P35348 (whole entry, looked up): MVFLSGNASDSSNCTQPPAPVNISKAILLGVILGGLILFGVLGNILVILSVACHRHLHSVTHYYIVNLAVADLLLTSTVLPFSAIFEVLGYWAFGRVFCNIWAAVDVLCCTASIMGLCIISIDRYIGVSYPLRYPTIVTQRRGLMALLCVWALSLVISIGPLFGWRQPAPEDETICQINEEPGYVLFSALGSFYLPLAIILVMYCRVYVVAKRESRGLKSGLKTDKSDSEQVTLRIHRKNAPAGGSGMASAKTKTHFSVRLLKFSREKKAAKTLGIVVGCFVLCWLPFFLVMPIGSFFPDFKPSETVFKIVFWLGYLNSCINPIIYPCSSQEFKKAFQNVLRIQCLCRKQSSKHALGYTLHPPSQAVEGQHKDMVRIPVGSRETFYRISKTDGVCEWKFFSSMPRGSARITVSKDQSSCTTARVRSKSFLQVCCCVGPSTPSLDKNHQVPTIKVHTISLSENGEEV
Sequence of UniProt P62942 (whole entry, looked up): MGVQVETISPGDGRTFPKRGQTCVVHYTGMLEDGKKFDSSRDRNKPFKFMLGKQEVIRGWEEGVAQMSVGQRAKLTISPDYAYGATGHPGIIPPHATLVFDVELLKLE
Sequence of UniProt P10636 (whole entry, looked up): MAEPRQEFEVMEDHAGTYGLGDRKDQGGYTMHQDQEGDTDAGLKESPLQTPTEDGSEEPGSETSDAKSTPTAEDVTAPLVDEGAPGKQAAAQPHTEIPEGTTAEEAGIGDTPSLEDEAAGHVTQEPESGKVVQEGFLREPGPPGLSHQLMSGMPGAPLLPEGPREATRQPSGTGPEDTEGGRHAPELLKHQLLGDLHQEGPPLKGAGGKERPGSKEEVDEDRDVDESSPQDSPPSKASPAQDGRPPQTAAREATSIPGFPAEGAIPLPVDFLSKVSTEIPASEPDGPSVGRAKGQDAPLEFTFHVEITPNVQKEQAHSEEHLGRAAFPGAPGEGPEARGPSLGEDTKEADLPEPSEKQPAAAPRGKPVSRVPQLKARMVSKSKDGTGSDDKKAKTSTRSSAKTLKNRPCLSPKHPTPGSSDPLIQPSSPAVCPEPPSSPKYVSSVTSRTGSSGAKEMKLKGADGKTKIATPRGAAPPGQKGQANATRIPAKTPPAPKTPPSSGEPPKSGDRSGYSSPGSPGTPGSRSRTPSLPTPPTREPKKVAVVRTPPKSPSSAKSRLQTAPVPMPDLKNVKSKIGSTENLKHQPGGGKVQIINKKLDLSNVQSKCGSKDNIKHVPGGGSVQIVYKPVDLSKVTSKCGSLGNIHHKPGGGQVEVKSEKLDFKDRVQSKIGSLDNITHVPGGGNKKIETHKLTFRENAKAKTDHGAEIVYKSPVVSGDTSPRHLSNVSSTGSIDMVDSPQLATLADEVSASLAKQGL
Sequence of UniProt Q92847 (whole entry, looked up): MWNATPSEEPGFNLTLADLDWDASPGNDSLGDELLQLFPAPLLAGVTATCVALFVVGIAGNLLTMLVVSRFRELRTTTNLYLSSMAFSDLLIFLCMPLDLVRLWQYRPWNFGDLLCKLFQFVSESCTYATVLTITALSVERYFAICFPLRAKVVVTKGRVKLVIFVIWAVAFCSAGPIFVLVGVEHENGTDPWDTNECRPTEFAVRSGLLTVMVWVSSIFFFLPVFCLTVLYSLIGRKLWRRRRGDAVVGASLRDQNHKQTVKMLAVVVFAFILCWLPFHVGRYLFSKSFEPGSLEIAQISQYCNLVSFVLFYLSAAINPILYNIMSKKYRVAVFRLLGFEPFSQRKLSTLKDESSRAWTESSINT
Sequence of UniProt P29350 (whole entry, looked up): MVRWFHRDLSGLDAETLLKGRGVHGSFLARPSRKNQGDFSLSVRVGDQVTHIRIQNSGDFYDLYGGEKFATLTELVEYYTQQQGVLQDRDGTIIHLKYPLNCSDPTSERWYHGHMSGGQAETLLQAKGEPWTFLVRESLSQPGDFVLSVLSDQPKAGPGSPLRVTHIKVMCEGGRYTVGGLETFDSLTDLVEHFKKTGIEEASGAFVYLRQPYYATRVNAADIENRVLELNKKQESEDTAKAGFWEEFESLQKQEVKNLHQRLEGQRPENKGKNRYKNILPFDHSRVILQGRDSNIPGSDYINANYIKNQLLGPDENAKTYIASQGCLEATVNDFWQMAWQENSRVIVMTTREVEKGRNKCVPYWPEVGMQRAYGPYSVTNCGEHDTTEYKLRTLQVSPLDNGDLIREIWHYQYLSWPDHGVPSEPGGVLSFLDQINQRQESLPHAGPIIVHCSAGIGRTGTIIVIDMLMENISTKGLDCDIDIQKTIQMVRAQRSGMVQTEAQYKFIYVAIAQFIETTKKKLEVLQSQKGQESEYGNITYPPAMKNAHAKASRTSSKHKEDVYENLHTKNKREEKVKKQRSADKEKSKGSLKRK
Sequence of UniProt P46089 (whole entry, unmodified, looked up): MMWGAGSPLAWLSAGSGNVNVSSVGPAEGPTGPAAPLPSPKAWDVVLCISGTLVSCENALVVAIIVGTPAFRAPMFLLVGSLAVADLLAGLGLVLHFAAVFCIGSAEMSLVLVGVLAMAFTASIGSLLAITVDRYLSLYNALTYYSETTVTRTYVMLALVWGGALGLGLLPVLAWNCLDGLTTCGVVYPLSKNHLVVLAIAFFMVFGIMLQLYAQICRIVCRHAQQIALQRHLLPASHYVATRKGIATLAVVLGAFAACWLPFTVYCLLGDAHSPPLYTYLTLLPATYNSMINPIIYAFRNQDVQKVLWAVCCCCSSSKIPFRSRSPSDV
Sequence of UniProt Q8TDS7 (whole entry, looked up): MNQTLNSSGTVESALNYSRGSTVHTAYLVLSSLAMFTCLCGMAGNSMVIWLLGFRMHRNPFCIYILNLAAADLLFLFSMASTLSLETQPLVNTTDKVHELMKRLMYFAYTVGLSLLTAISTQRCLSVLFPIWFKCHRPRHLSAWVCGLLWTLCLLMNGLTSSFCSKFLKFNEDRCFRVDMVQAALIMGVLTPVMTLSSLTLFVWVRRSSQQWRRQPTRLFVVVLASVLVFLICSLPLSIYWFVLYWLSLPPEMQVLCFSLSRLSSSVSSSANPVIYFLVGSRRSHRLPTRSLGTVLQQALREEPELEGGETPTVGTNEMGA

Nc1ncnc2c1ncn2[C@@H]1O[C@H](COP(=O)(O)OP(=O)(O)OC[C@H]2OC(O)[C@H](O)[C@@H]2O)[C@@H](O)[C@H]1OP(=O)(O)O (some centres unmarked) — EC50 (TRPM2 (Nematostella vectensis, UniProt A7T1N0); agonist): 480 ± 30 nM
C=C[C@H]1CN([C@@H](C)c2cn(CCCNC(=O)CCc3ccc4n3[B-](F)(F)[N+]3=C(c5ccc[nH]5)C=CC3=C4)nn2)C(=O)[C@@H]2CCC[C@H]1N2S(=O)(=O)c1cc(Cl)cc(Cl)c1 — EC50 (FKBP1A (Homo sapiens, UniProt P62942); tracer binding, NanoBRET tracer titration; HEK293T transiently expressing FKBP1A; 2 h, 37 °C): 28 ± 1 nM
COc1ccc(C2(C(=O)N3CCC(Nc4nc5ccccc5c(=O)[nH]4)CC3)CC2)cc1 — EC50 (MRGPRD (Homo sapiens, UniProt Q8TDS7); β-arrestin recruitment, agonist): 166 nM
Cn1c(=O)n(C2CCC(=O)NC2=O)c2ccc(C3CCN(CC(=O)Nc4cccc(CS(=O)(=O)N5CC[C@H](Nc6cccc(-c7sc(C(=O)O)c(OCC(=O)O)c7Cl)c6)CC5(C)C)c4)CC3)cc21 (some centres unmarked) — EC50 (PTPN6 (Homo sapiens, UniProt P29350); phosphatase activity; together with: DiFMUP substrate): > 10000 nM
CCOC(=O)C(CC)(CCCSCCOCCOCCOCCN)NC(=O)c1ccc(C2CC2)c(Cc2ccc(F)cc2)n1 (centres unmarked) — EC50 (CNR1; cAMP, agonist): 146 nM
CC(=O)N[C@@H]1[C@@H](O[C@@H]2O[C@H](C(=O)O)[C@@H](O[C@@H]3O[C@H](COS(=O)(=O)O)[C@@H](OS(=O)(=O)O)[C@H](O[C@@H]4O[C@H](C(=O)O)[C@@H](OS(=O)(=O)O)[C@H](OS(=O)(=O)O)[C@H]4OS(=O)(=O)O)[C@H]3NC(C)=O)[C@H](OS(=O)(=O)O)[C@H]2OS(=O)(=O)O)[C@H](OS(=O)(=O)O)[C@@H](COS(=O)(=O)O)O[C@H]1SCCOCCOCCSSCCOCCOCCS[C@@H]1O[C@H](COS(=O)(=O)O)[C@@H](OS(=O)(=O)O)[C@H](O[C@@H]2O[C@H](C(=O)O)[C@@H](O[C@@H]3O[C@H](COS(=O)(=O)O)[C@@H](OS(=O)(=O)O)[C@H](O[C@@H]4O[C@H](C(=O)O)[C@@H](OS(=O)(=O)O)[C@H](OS(=O)(=O)O)[C@H]4OS(=O)(=O)O)[C@H]3NC(C)=O)[C@H](OS(=O)(=O)O)[C@H]2OS(=O)(=O)O)[C@H]1NC(C)=O — EC50 (SOST; fluorescence polarization competition; together with: TAMRA-labelled probe): 45 ± 7 nM
COc1ccc(C(=O)c2c(C(=O)NCCCN(C)C)oc3ccc(Cl)cc3c2=O)cc1OC — EC50 (GHSR (Homo sapiens, UniProt Q92847); calcium mobilization; HEK293T transfected): 91.2 nM
Cc1cc(NC(=O)COc2ccc(Cl)cc2Cl)n(CC(F)(F)F)n1 — EC50 (Kir3.1/Kir3.4; activator, thallium flux; HEK293): 373 nM
CCOC(=O)[C@](CC)(CCCSCCOCCOCCN)NC(=O)c1ccc(C2CC2)c(Cc2ccc(F)cc2)n1 — EC50 (CNR1; cAMP, agonist): 57 nM
Fc1ccc(CN2CCC[C@@H](c3nc(-c4ccc(F)c5cn[nH]c45)no3)C2)cn1 — EC50 (CNR1; mean): 110 nM
CC(=O)N[C@@H]1[C@@H](O[C@@H]2O[C@H](C(=O)O)[C@@H](OS(=O)(=O)O)[C@H](OS(=O)(=O)O)[C@H]2OS(=O)(=O)O)[C@H](OS(=O)(=O)O)[C@@H](COS(=O)(=O)O)O[C@H]1N=[N+]=[N-] — EC50 (SOST; fluorescence polarization competition; corrected value, together with: TAMRA-labelled probe): 673000 ± 27900 nM
Nc1ccccc1Nc1nc2ccccc2[nH]1 — EC50 (Microtubule-associated protein tau, phosphorylated (MAPT, Homo sapiens, UniProt P10636); tau aggregation cytotoxicity, 10-point dose response): 9400 nM
O=C(COc1ccc(C(F)(F)F)cc1C(F)(F)F)Nc1cc(C2CCC2)nn1CC(F)(F)F — EC50 (Kir3.1/Kir3.4; activator, thallium flux; HEK293): 10000 nM
O=C(Cc1ccc(OCc2ccccc2)cc1)NC1(C(=O)O)CCN(C(=O)c2ccc(-c3cccc(Cl)c3)cc2)CC1 — EC50 (LPAR3 (Homo sapiens, UniProt Q9UBY5); cAMP, agonist, luciferase): > 10000 nM
CC(C)Oc1cc(Cl)ccc1CNc1cc(-c2ccccc2)nc2ncnn12 — EC50 (GPR3 (Homo sapiens, UniProt P46089, Q211A); cAMP level, cAMP GloSensor): 18100 nM
CC(=O)N[C@@H]1[C@@H](O[C@@H]2O[C@H](C(=O)O)[C@@H](O[C@@H]3O[C@H](COS(=O)(=O)O)[C@@H](OS(=O)(=O)O)[C@H](O[C@@H]4O[C@H](C(=O)O)[C@@H](O[C@@H]5O[C@H](COS(=O)(=O)O)[C@@H](OS(=O)(=O)O)[C@H](O[C@@H]6O[C@H](C(=O)O)[C@@H](OS(=O)(=O)O)[C@H](OS(=O)(=O)O)[C@H]6OS(=O)(=O)O)[C@H]5NC(C)=O)[C@H](OS(=O)(=O)O)[C@H]4OS(=O)(=O)O)[C@H]3NC(C)=O)[C@H](OS(=O)(=O)O)[C@H]2OS(=O)(=O)O)[C@H](OS(=O)(=O)O)[C@@H](COS(=O)(=O)O)O[C@H]1N=[N+]=[N-] — EC50 (SOST; fluorescence polarization competition; together with: TAMRA-labelled probe): 47 ± 7 nM
Cc1cccc(-c2ccc([C@@H]3[C@@H](CO)N4CCCCN(S(=O)(=O)c5nccn5C)C[C@@H]34)cc2)c1C — EC50 (IDE (Homo sapiens, UniProt P14735); inhibitor): 2 nM
CC(=O)N[C@H]1[C@H](O[C@H]2[C@H](OS(=O)(=O)O)[C@@H](OS(=O)(=O)O)[C@H](O[C@H]3[C@H](OS(=O)(=O)O)[C@@H](COS(=O)(=O)O)OC[C@@H]3NC(C)=O)O[C@@H]2C(=O)O)O[C@H](COS(=O)(=O)O)[C@@H](OS(=O)(=O)O)[C@@H]1O[C@@H]1O[C@H](C(=O)O)[C@@H](OS(=O)(=O)O)[C@H](OS(=O)(=O)O)[C@H]1OS(=O)(=O)O — EC50 (SOST; fluorescence polarization competition; corrected value, together with: TAMRA-labelled probe): 71300 ± 35500 nM
O=C(O)c1ccccc1OCc1ccccc1Br — EC50 (CDC42 (Homo sapiens, UniProt P60953, Q61L); GTP binding, activator, flow cytometry bead; EDTA buffer, together with: 100 nM BODIPY-GTP): 50.1 nM
CC(=O)N[C@@H]1[C@@H](O[C@@H]2O[C@H](C(=O)O)[C@@H](O[C@@H]3O[C@H](COS(=O)(=O)O)[C@@H](OS(=O)(=O)O)[C@H](O[C@@H]4O[C@H](C(=O)O)[C@@H](OS(=O)(=O)O)[C@H](OS(=O)(=O)O)[C@H]4OS(=O)(=O)O)[C@H]3NC(C)=O)[C@H](OS(=O)(=O)O)[C@H]2OS(=O)(=O)O)[C@H](OS(=O)(=O)O)[C@@H](COS(=O)(=O)O)O[C@H]1n1ccnn1 — EC50 (SOST; fluorescence polarization competition; corrected value, together with: TAMRA-labelled probe): 52400 ± 18200 nM
CNc1ncnc2c1ncn2C1OC(CO)C(O)C1O (centres unmarked) — EC50 (ADORA3 (Homo sapiens, UniProt P0DMS8, L264A); G protein activation, agonist): 12 nM
CS[C@@H]1O[C@H](COS(=O)(=O)O)[C@@H](OS(=O)(=O)O)[C@H](O[C@@H]2O[C@H](C(=O)O)[C@@H](O[C@@H]3O[C@H](COS(=O)(=O)O)[C@@H](OS(=O)(=O)O)[C@H](O[C@@H]4O[C@H](C(=O)O)[C@@H](OS(=O)(=O)O)[C@H](OS(=O)(=O)O)[C@H]4OS(=O)(=O)O)[C@H]3NC(C)=O)[C@H](OS(=O)(=O)O)[C@H]2OS(=O)(=O)O)[C@H]1NC(C)=O — EC50 (SOST; fluorescence polarization competition; corrected value, together with: TAMRA-labelled probe): 95600 ± 22500 nM
CNC[C@H](O)c1cccc(OCCOCCOCC#Cc2cccc(Cn3c(-c4ccccc4)c(-c4ccccc4)c4c(=N)n([C@H]5CC[C@H](O)CC5)cnc43)c2)c1 — EC50 (ADRA1A (Homo sapiens, UniProt P35348); calcium signal, agonist, fluorescence): > 10000 nM

For quick reference, copied from above:
O=C(COc1ccc(C(F)(F)F)cc1C(F)(F)F)Nc1cc(C2CCC2)nn1CC(F)(F)F — EC50 (Kir3.1/Kir3.4; activator, thallium flux; HEK293): 10000 nM
COc1ccc(C(=O)c2c(C(=O)NCCCN(C)C)oc3ccc(Cl)cc3c2=O)cc1OC — EC50 (GHSR (Homo sapiens, UniProt Q92847); calcium mobilization; HEK293T transfected): 91.2 nM
O=C(O)c1ccccc1OCc1ccccc1Br — EC50 (CDC42 (Homo sapiens, UniProt P60953, Q61L); GTP binding, activator, flow cytometry bead; EDTA buffer, together with: 100 nM BODIPY-GTP): 50.1 nM
